Published values gathered from unrelated publications.
Parts stem from different laboratories: compare values within a part only. Changes are numbered by the printed parent chain.

Sample 1
Target: CCNF, cyclin fold, Cln2 fusion (human)
Method: yeast growth competition, sequencing
Matrix: yeast
Setting: strong parent motif
Relative to: not given
Reading: higher = stronger binding
Starting sequence: BRCA2 docking peptide (human); CKKRRALDFLSRL
Change	normalised enrichment score
CKKRRALDFLARL [S11A]	2.83
CKKRRALDFLSAL [R12A]	4.01
CKKRRAADFLSRL [L7A]	2.69
CKKRAAADFLSRL [R5A L7A]	2.21
AKKRRALDFLSRL [C1A]	1.85
CKKRRALDALSRL [F9A]	2.45
CKARRALDFLSRL [K3A]	5.46
CKKRKALDFLSRL [R5K]	1.21
CKKRKALDLLSRL [R5K F9L]	1.39

Sample 2
Target: Hepatocyte nuclear factor 3-alpha (Foxa1, Mus musculus, UniProt P35582, residues 1-468, full length assumed)
Method: EMSA with sequencing
Form: double-stranded DNA, one strand shown
Matrix: in vitro
Tested at: 10 and 20 nM
Setting: whole designed probe, mean of two concentrations, ends assumed
Relative to: negative control set to 0
Reading: higher = stronger binding
All sequences stand within: GTGAGCGGTGCCCATTGATGGGGAAC … TTTCACTGGGATCGTGGGGAC
Construct (chain): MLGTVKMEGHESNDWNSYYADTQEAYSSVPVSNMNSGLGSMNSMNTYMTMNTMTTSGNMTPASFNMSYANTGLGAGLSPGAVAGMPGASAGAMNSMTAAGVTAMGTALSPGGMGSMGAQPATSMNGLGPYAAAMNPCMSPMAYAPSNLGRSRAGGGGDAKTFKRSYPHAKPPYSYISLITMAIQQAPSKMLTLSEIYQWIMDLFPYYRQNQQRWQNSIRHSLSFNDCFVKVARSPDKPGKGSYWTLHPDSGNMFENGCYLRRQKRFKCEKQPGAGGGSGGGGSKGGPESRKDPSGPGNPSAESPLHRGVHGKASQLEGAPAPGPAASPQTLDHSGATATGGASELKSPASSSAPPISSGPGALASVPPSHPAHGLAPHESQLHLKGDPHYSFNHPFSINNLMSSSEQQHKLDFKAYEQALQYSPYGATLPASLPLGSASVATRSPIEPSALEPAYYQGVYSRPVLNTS
Strand	normalised bound fraction
TTCCTTTATCCCAACAAGATTATACAGACAAAACCAGGTTAAAATCGACACAAGGTCAACTTGAAATGGGGAAAGAGGAAGGTGACGTCACAAAATAATCTTGAAGTCTTGTGTACAAGCATCTGCAGAAGAGTTCAGCCTCACCACTTGGGTAATGCTGTTGGAATGTGGTCTGGGTTCACTGTATTTGAAT	-0.00807 ratio
ATAGAAATTAAACAGATATAAAACTAGTAAACTCAGATAAAACTAGCACATATGTGAGAGCAAATTCAGCAAAACAAACCTCTGAATTTCAAAGTAATCTTGTCCTTGAAGATGTGGAAACAGGGTCAAACTCCACCAATGTTCTGTGAGTCACAAAATTACTCTGAGATTCAGGGGTCAAGGGGGAAAGTTA	0.000893 ratio
CCATTTCTTTTATTTAAATTTTGATTTCTCCTTGACTTTTATCAGTTACTTCCTTTTGATCCTTTTCTCATATTCTTTTTTCTGTAGTCCTATGTTTACTTAGATCATTTAATATATTATAGTATTCAAGTATTTCAGCAACAGATTTTTTTATGTCAGAAGCATTGGAATCATTTTAAAAATCAAAACTTTA	0.498 ratio
TTTCAGTAGGTGGTAGTGGGTTCAGGAAATCTGTGTTTTTACCAAAGTATCCCCTACTATAGAATTAATTTTTGTGTTCCCCCCTCATTCATATGTTGACATTTAAACCTCCACTGTGATGATACCAGGTGGCTTTGGGAGGTGATTAGGTGATAACGATGAAGCCCTCATAAATGTGATTACTGACCTAATA	0.128 ratio
ACTTATAAATGGACACCCAATTTTCAGCTATAACAAAGAATGAAGTACTTATACATGGTAAAATATTGGTGAAATTTGAAAGCATTATGCTAAGTACACAAAAGGACAAATATTACTTGATTTTATTCACATGAAACATCAGGAATTGGCAAATCAACTGGGATATAAATCAGATTAGTGGTCATTAGGGCTC	0.38 ratio

Sample 3
Target: RNA binding protein fox-1 homolog 2, RRM domain, GST-SBP tag (RBFOX2, Homo sapiens, UniProt O43251-10, residues 100-194)
Method: RNA Bind-n-Seq
Form: RNA
Matrix: in vitro
Tested at: 365 nM
Setting: natural RNA segment, single round, ends assumed
Relative to: no-protein control
Reading: higher = stronger binding
All sequences stand within: GGGAGUUCUACAGUCCGACGAUC … UGGAAUUCUCGGGUGCCAA
Residues (chain): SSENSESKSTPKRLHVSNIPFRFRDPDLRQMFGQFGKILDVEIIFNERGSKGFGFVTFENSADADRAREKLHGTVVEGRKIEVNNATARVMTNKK
Strand	RBNS enrichment (R)
CCUUAGGUCGGGCUUCUGUUAUGUGCUUUCCAGAAGCAGUUUUUACAACUGUAGGUAAGGUUGUAAAUUCUGAGGAACAACAACACCACCACCACAACCAUGAGCCUUUC	0.617
UUAAAGCCUGGAGUCUGUUAGAUUAACUACCAAAUAGGAAGCAGCCAUGGAGGUUAUUGCCUGCGUCCCAGAAUCAAGCAGUUGGGGUGCAGGAGGCUGACAUAGUGAUA	0.279
UAACAUGUUUACCUGAUUAUCUUCCAUAGAGUAACAUAAGCUGCUUUUCAAAGGUACCAUUGUGAUAAUGAGAUCAAAUUUAUAAGUUAUUAUUUUUAAUUUUCUAAAUU	0.834
UACAUGUCCUGUGUCCUGGGGACUAAUGUGUUAAUUGCCUUAAAUAAAUUAAUAGACUCCAAGUCCAUCCACAGGGUCAUACUUCUGUCUCCCGCACAGCUGGAGGCCAC	0.332
GACAAGGGGACAAUGACCAUCAAUUCAUCUAAUCAGGAAUUGUGAUGGCUUCCUAAGGAAUCUCUGCUUGCUCUGUAUUCUUUAUGUGGAAUAAUAUCAAGAAAUUUUUC	0.633
CUGCCACAGAGCAGCUUCCCACCUACCCUAGGGACUCCACAGCUUCUGGCAAGCAGGUGCAGAGUCCCCAGCUCUGGGCUGUGCUGGGGAGUGUCAGGCCUGGAGUCCAC	0.391
UGGUAGCCCUUGAGCUCUAAUUAAGAGAGAUCCAAACCACUCAGUACCCACUGGGCAGUGGGAAGGCCUACCGACUUACUUUAUCAUUGAGGGCUUACUGAUACAAUGAA	0.326
UAUGUAAAAACUGUCUGCAAGGACCGUCUGGCUUCAUUUCCCUGAGCACUCCCUACAUGGUAGGUUGUACCAGAGACCUAUGACCCCUGCCUUGUGGUAAACAGCAGGUG	0.467

Sample 4
Target: Histone acetyltransferase KAT6A, winged helix 2, GST fusion (KAT6A, Homo sapiens, UniProt Q92794, residues 85-181)
Method: protein binding microarray
Form: double-stranded DNA, one strand shown
Matrix: in vitro
Tested at: not given
Setting: 8-mer, flanks averaged, mean of 2 arrays, mostly near background
Relative to: not given
Reading: higher = stronger binding
Residues (chain): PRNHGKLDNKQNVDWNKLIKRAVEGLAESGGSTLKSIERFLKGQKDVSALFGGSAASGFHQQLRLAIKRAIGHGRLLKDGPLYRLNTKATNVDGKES
Strand	E-score
ATACTTGC	-0.162
ATTCTAAG	-0.0891
CCGTCGAG	0.131
AGTTGTCC	0.013
GTACTCAA	-0.232
GGCCTGCA	0.013
CAACTTGC	-0.156
CCCTCTAC	-0.117
CTGCTAAC	0.0583
CCTAGAAC	0.0328
CGCTAACG	0.0446
AAGTTAAA	-0.0249
CGGTCGGC	0.00441
CAACCCCG	-0.00715
AGGCCCAG	0.0798
ACCCGGCG	0.126
GAATCAGA	0.0617

A few entries again (sample 4):
Strand	E-score
GTACTCAA	-0.232
GAATCAGA	0.0617
CGCTAACG	0.0446
ATTCTAAG	-0.0891
CAACTTGC	-0.156
